Results collected from several papers.
Every numbered part comes from another study and shows a few of its results, in no order.

Study 1
Target: RING finger protein unkempt homolog, zinc fingers 1-6, GST-SBP tag (UNK, Homo sapiens, UniProt Q9C0B0, residues 30-357)
Method: RNA Bind-n-Seq
Molecule type: RNA
Medium: in vitro
Tested at: not given
Setting: RNA with constant flanks, human and mouse sites, ends assumed
Baseline: input RNA pool
Reading: higher = stronger binding
Constant ends, left off below: GGGAGUUCUACAGUCCGACGAUC … CAACAGAGGAUUGAGCAUCA
Construct (chain): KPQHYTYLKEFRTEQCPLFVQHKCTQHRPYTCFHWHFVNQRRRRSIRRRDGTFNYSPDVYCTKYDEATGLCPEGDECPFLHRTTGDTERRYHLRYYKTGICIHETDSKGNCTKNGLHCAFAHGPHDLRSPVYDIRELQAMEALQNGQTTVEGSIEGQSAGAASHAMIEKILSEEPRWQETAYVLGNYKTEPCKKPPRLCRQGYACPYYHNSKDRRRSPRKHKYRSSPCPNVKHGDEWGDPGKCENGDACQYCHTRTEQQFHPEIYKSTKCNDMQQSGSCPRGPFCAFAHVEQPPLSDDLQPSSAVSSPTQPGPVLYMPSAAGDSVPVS
Oligonucleotide	bound/input enrichment [ratio]
GUUUUUGACAAUUUUUUUAUCAAGAAAGAGCAAAUAAAAAGCAGUGGUAAUGAUCCAAAGUAUAGUACAACCACAGCUCAGAAUUCCAGCAGUUCAUCCAGUCAGAGCAAAAUGGUUAAU	0.368
CAUGACAAAGCUUCAAAGGAUGCCAAAUAUGAACUGGUAAAAGCACUUGCCAAUUCCAAGACAGUUGCAGAGAUCUUUGGGAACUCAAAUUAUUUGAGGCUCAGAGCGUACCUAAGUGAA	0.107
AGUCUCACGAAUGUAGGAAACUCAUUUAGUGGUCCAGCUAAUCCUUUAGUGUCUAGAUCUAAUAAGUUUCAGAACUCGUCAGUGGAAGAUGAUGAUGAUGUUGUUUUUAUCGAACCUGUA	1.13
UUAUCAAGGAAACAGAAAGAAGAAUUAUGGCAAAGACUGAAGGACUUACUAACAGAAACAUUGUUGGAAAGCCCUGUGGAUAGGUGGCAGACAGUGGAAGUCGAGGGUGCAGACGAUAUG	0.435
AACACAUGCUGAACACUGAGCUUCUAAUUGUUGUCCAAGGAACCCAUGUAUUCAUUAUACCAUGCUGAGGUUUGGUUUAAAAGAUCUAGGCAACUUAUUUAAUCUUAUUUAAACAAAUAU	1.54
AAGAGCCCCUUAAGUACCACCAUUCAGAUCAAACUGGAUAAUGUGGGCACAGUUACUGUCCCUGCUCCUGCACCAUCCAUUAGUGGUGAUGGUGACGGAAUUGAAGAGGAUAUUGCUCCA	0.0787
UGUGAGCAGAAAAGAGGCAAAGAUAAUAAAGCUAUUAUUGCAUCGAAUAUCAUGUACAUAGUAGGUCAAUACCCAAGAUUUUUGAGAGCACACUGGAAAUUUUUGAAGACAGUAGUAAAC	0.256
AGUAAACCUGGCAGCUAUAGAAUACACUAUGUGCAUUUAUAAUAGCUAUUUUAUAUAUUGUAGUGUUCAACAUUUUUAAAUUAAAUGUUUUACAUUCACAAGUGGUGGGGAGUCUUGUCA	0.908
CGAAUGCCACUUUUAAGCCUGCAUCUAGAUGUAAAAGAAAAUGGUGAAGUAAAACCUUAUUCUAUUGAAAUGAGUAGAGAGGAGCUGCAGAAUCUAAUACAGUCCUUGGAAGCAGCGAAU	0.281
UAAGUCCUGUGCCAGCACUUCGCUCAUAAAGUUUUAAAUUCUGGACCAAUAGUGUUUGUUUCCUGAUUAUUGUAUCCAAUACUUUGCCUAGUAUGUAACUCACUCUUACUGAUAAUAAAA	1.46
AGCAUGUUACAGCGGAAAAUUGCAGAGCUCGAGGAAGAACAGUCCCAGGGCUCCACCACAAAUAGUGACUGGAUGAAAAACCUCAUCUCCCCUGACUUAGGAGUUGUAUUUCUCAAUGUA	0.406

Study 2
Target: Phosphate system positive regulatory protein PHO4, full length, GST-tagged (PHO4, Saccharomyces cerevisiae, UniProt P07270, residues 1-312)
Method: competition protein-binding microarray
Molecule type: double-stranded DNA, one strand shown
Medium: in vitro
Tested at: 2 µM
Setting: whole 60-bp probe, lowest competitor level
Added: Cbf1 competitor, 0.05 µM
Reading: higher = stronger binding
Constant ends, left off below: … GTCTTGATTCGCTTGACGCTGCTG
Target sequence (chain): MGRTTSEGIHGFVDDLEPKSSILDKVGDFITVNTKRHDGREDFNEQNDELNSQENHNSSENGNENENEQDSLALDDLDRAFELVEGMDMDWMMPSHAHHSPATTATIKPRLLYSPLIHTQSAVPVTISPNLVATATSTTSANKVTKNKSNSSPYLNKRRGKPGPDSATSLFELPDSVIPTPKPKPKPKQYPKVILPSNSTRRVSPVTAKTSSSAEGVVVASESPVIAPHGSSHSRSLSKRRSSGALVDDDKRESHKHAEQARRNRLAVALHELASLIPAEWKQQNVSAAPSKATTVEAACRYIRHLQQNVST
Oligonucleotide	fluorescence intensity
ACTCCAAAATACATCCTCGTGGCAACCCAGGCTACG	13900 a.u.
TTGACGGAAAAACGCTGTGTGACGGAGACTAGCCTG	3810 a.u.
GCTTGGAAGTCTCACCACGGGCAAATCTTCTTCTAA	5900 a.u.
AATACCCTGGCATCTCTCGTGACGGGTTACCATTTA	4840 a.u.
TTATTAGGTTCGAGTCACGTGATGGGTCCTTTTCTG	12500 a.u.
ATTCCTGTTCCGGGACAAGTGCTACAACTGACCTTA	2830 a.u.
TTCCTTTGGATTTTCCGCGTGTGTTTTCTGACCGTT	8200 a.u.
CTTCTGTAAATTTGTCACTACACTTGACGCGCCCCG	3760 a.u.
GAAGCTGTTATACTATTCGTGATTGTGGGCAAAAAT	4320 a.u.
TGGATATGCCGATTTCTCGTGAATAAATTTTACGGA	3630 a.u.
AAATACAAAGACAAGCATGTGCTTTCGGCAAAAGTG	11700 a.u.
CAGTAACAGGTACAGCACGTGCAAAATCAGGATGAC	20000 a.u.
TTAAGTGGGCTTACCCACGCTTTCGGTGCCTATGGT	7410 a.u.
ACAAGTGCCGACTGACTCGTGTCCTGGTAATAACAG	9210 a.u.
GAAGATTGGGTCTGCGTTGTGACGGAAGTGCCAGAT	3540 a.u.
AAAACGAGCCTCCATCACGTGCAAAAAAGAAATAGT	16600 a.u.
CTTTCTGCCTTGGAAGGCGTGATGGTGATGGTACAT	6770 a.u.
GTCAATCGATTGGATCAGGTGAGGAAGTACTCAGCG	2980 a.u.
TAATCGGAGACGAGTCACGTGCAAAAAGAAATCATA	14000 a.u.
TGCGCAACAACTTGCGGCGTGGGTGTATGTCTAGAA	8040 a.u.
CGTATTGGTAACCATCACGTGCCGAGCAGTAGACCT	15300 a.u.
AAATTACTAAGTTGTGGCGTGGGTGACGCCGTATGA	6400 a.u.
CGGGGTTAAGTTTGGCAGGTGGGTGGCTTGCAGCAG	7960 a.u.
CTTTCCCGATCTTGTATTGTGGGTGTAGCACATTTG	4990 a.u.
CATACCCAACCTTTTCACGTGACCTAAGATATTTGT	12600 a.u.

Study 3
Target: Interferon regulatory factor 7, full length, phosphomimetic (IRF7, Homo sapiens, UniProt Q92985, residues 1-503, S471D/S472D/S475D/S476D/S477D/S483D/S484D/S487D)
Sequence of UniProt Q92985 (whole entry, unmodified, looked up): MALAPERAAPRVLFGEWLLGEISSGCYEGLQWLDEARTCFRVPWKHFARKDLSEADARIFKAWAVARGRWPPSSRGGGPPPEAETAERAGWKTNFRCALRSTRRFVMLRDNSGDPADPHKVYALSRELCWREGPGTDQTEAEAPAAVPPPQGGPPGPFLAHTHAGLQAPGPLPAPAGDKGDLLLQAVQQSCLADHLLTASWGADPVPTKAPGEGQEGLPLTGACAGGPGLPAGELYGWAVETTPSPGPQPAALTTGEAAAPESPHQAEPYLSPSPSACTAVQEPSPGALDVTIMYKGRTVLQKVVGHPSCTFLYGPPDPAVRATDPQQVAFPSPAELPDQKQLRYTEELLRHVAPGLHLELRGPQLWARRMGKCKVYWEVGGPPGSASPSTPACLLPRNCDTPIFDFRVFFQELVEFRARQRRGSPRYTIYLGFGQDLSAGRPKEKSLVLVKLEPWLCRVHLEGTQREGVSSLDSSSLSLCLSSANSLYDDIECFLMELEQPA
Method: protein-binding microarray
Molecule type: double-stranded DNA, one strand shown
Medium: in vitro
Tested at: 2200 nM top
Setting: 60-bp whole probe
Added: salmon DNA 0.4 mg/ml
Baseline: random background probes
Reading: higher = stronger binding
Constant ends, left off below: GCCTAGCAC … GTCTTGATTCGCTTGACGCTGCTG
Oligonucleotide	fitted relative affinity [z-score]
GACGGTCTCGATTTCGGGACGTGCTAG	1.75
TTAGGTATCCTTATCCTTTAGTGCTAG	0.873
TGGCCTCTAGGTTTTCTGGAGTGCTAG	-0.516
GACGATTACAGTATCGAGACGTGCTAG	0.325
TTCCAACTCTGTTTTCGCTTGTGCTAG	3.98
CCTTTTTTTTTTTTTCTGATGTGCTAG	2.07
GATGGTCTCCTTCTCCTGACGTGCTAG	0.979
TTAGGTCTCCTTCTCGTTTAGTGCTAG	1.26
TTAGGTCTCGGTATCGGGTAGTGCTAG	0.386
GACGGTATCGGGACTGCGGACGTGCTA	-0.655
ATATATTTATGTATACACACGTGCTAG	1.1
AGTCATCTCCAAAGTCAGCCAGTGCTA	0.249
ACCCATCTCAAGTAGCCTAGCGTGCTA	0.344
GACTGTTTCCTACTGCTGACGTGCTAG	2.15
CCCACCCTCAGGGAGCCTGTGTGCTAG	-0.85
TGGGAGCTCAGGAATCCCACGTGCTAG	-0.797
TTAGATTTCAGTTCCGCTTAGTGCTAG	2.48
GACGATCTCAGGCTCGAGACGTGCTAG	0.0774
TTTACTTTCTTTTTTTCTTTGTGCTAG	10.4
GACGTTCTCGGTCTCGGGACGTGCTAG	0.651
CTCTTGTTCTCTCTGGCCCTGTGCTAG	1.61
TTAGGTATCCTTATCCTATAGTGCTAG	0.88
CTAGGTTTCGACTATCGGTTAGTGCTA	3.84
TTGGATATCGGGTTTCGATTAGTGCTA	2.77
TTAGGTATCGGTTTCGGTGAGTGCTAG	3.61

Study 4
Target: RNA binding protein fox-1 homolog 2, RRM domain, GST-SBP tag (RBFOX2, Homo sapiens, UniProt O43251-10, residues 100-194)
Method: RNA Bind-n-Seq
Molecule type: RNA
Medium: in vitro
Tested at: 365 nM
Setting: natural RNA segment, single round, ends assumed
Baseline: no-protein control
Reading: higher = stronger binding
Constant ends, left off below: GGGAGUUCUACAGUCCGACGAUC … UGGAAUUCUCGGGUGCCAA
Residues (chain): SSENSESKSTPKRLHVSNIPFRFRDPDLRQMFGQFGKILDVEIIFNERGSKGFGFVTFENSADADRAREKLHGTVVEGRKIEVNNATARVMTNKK
Oligonucleotide	RBNS enrichment (R)
GUCCCGCCCACCAGCGGACUCGGCCCCCAAGGCUCCGCCCACACUGACCACGCCCCUCGGCGGGGCCGCCCUCUGCUCCAGCCCUCCCGAUUAAAGCGUGCCCCGGUCCA	0.673
UCUCUUCAAAAGAAGAGAGAUUCCAAGCAACCCAUCUUUCUUCAGUAUGUAUGUUCUGUACAUACUUAUCGGAGCGCGCCAGUAAGUAUCAGGCAUAUAUAUCUGUCUGU	0.217
GUGUAAUUUUUCUGUAUAGACAGGAGAAGAAAGAACUAUCUUCAUCUGAGAGAGGCUAAAAUGUUUUCAGCUAGGAACAAAUCUUCCUGGUCGAAAGUUAGUAGGAUAUG	0.365
ACCCCUCCCCACAGAGGAAGCCACUAGGAGCUUAACUCAAUUAUGGGAGAACCUUAGACACUUCACCAAAUUCUGCAAUGACAGCUGGGGUAUUUUAAAGUUUAUGAUGA	0.358
GCGAGCUGGAAGGAAGCGCUCUCACUUUUUUUCAGGCAAUGUUGCUAGCCCUUCUAGCACACUGAGCUACGAGACUGCCAAUCUCUCUCCUGCGGCACGUUUGGGUUGGC	0.943
ACCCACAGUGUUACCUGACUUAUGAAACUUGAAACCGCCUCUGGAGCCGCCAUUCUGCAGAGUAUUUGGAAAAAGAAAAAAGGGUUUAUGCUUACGUCUCUGGGGUCGGG	0.308
ACAGAGUAUUUGCCACAAGAGGAGAGUAUCCCUCCAGCAAAUAAAAGCAAGUUAGAACGGGCUGGAUAGCCAAAGAGGCAGCCAUUCGGACCUAGGAAGUUGGGGUCUGU	0.719
AGGGUCAAAGUGUCUCACCACAAACAAAGGUAUCAAAUCACAAGCCUGGCUGGCUGAGGUGGUGUGAUAGAGGUCUGUGGUAAACAGCAGAACUUAGGGUGCAGACUGAC	0.256
AAGAAAACAGUCACUGCAUUUAUCUCUGUGAGUCUUUGUUCAGAGAGGCCUUUAGUCUAGAUUCUGCCAGCUGUGCCACACUCUGCACUAAAGAUAUCAGAGCUCUUAGU	0.578
GACAGAGCUCACCUUCAGGCAGGAGCAGGGGCCUCAGCAUUCUGCAGUGAGUGUAGAGUGAAAGUCCUCCAUGUAGUAUUUUCCUGCCCCAGACCAGUCUUAUAGUAAAU	0.535
UUCCUGUCCAGGAGACUCAUGAGGACUGUGUGACCUGCACAAGCCCACACCUGGGCAGGCUGUUGGUGUCUCCUUGGUCCUUAGGCAGAUACUCCCCUGAGUCCCCGAUC	0.238
ACAGCCUGGGAUGGCUCCAACUUCUUGCCCCUUCGGACCAAGUCCUGUGGCCAUGAAGUCGUCUCCUGCCUCGAUGUCAGUGAAUCCGGCACCUUCCUAGGCCUGGGCAC	0.183

Some of these lines once more (study 1):
Oligonucleotide	bound/input enrichment [ratio]
CAUGACAAAGCUUCAAAGGAUGCCAAAUAUGAACUGGUAAAAGCACUUGCCAAUUCCAAGACAGUUGCAGAGAUCUUUGGGAACUCAAAUUAUUUGAGGCUCAGAGCGUACCUAAGUGAA	0.107
UUAUCAAGGAAACAGAAAGAAGAAUUAUGGCAAAGACUGAAGGACUUACUAACAGAAACAUUGUUGGAAAGCCCUGUGGAUAGGUGGCAGACAGUGGAAGUCGAGGGUGCAGACGAUAUG	0.435
CGAAUGCCACUUUUAAGCCUGCAUCUAGAUGUAAAAGAAAAUGGUGAAGUAAAACCUUAUUCUAUUGAAAUGAGUAGAGAGGAGCUGCAGAAUCUAAUACAGUCCUUGGAAGCAGCGAAU	0.281
AACACAUGCUGAACACUGAGCUUCUAAUUGUUGUCCAAGGAACCCAUGUAUUCAUUAUACCAUGCUGAGGUUUGGUUUAAAAGAUCUAGGCAACUUAUUUAAUCUUAUUUAAACAAAUAU	1.54
GUUUUUGACAAUUUUUUUAUCAAGAAAGAGCAAAUAAAAAGCAGUGGUAAUGAUCCAAAGUAUAGUACAACCACAGCUCAGAAUUCCAGCAGUUCAUCCAGUCAGAGCAAAAUGGUUAAU	0.368
